Experimental data from different studies.
Protocols differ between the studies behind these lines. ± gives the spread as reported.
FURIN: Furin (FURIN, Homo sapiens, UniProt P09958)
lasR: Transcriptional activator protein LasR (lasR, Pseudomonas aeruginosa, UniProt P25084)
Orco: Orco (Drosophila melanogaster, UniProt Q9VNB5)
HDAC6: Protein deacetylase HDAC6 (HDAC6, Homo sapiens, UniProt Q9UBN7)
MAPK8: Mitogen-activated protein kinase 8 (MAPK8, Homo sapiens, UniProt P45983)
cyp121: Mycocyclosin synthase (cyp121, Mycobacterium tuberculosis, UniProt P9WPP7)

Protein sequences, listed by entry. Tags and fused reporters are not part of them. Chains listed by the source or under a name are the forms on record and can include a tag or linker. Residues count along the entry.
UniProt P09958, 108-715 limits assumed: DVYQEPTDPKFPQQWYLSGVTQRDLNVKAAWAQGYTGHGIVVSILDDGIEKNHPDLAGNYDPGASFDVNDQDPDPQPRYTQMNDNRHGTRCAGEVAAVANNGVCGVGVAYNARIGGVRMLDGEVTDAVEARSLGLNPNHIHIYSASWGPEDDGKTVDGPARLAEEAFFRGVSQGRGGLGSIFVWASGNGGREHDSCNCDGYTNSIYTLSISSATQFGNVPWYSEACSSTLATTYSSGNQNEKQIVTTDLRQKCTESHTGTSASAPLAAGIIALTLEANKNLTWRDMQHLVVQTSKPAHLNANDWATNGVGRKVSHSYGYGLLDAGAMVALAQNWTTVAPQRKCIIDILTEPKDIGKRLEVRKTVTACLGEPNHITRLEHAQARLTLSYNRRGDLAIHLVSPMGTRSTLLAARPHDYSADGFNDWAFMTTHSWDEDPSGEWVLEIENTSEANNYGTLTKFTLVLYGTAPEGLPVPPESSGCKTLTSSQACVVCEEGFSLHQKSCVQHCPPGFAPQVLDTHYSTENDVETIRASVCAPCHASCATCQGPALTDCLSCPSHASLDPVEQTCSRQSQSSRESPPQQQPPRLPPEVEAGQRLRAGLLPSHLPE
UniProt P09958, whole entry, looked up: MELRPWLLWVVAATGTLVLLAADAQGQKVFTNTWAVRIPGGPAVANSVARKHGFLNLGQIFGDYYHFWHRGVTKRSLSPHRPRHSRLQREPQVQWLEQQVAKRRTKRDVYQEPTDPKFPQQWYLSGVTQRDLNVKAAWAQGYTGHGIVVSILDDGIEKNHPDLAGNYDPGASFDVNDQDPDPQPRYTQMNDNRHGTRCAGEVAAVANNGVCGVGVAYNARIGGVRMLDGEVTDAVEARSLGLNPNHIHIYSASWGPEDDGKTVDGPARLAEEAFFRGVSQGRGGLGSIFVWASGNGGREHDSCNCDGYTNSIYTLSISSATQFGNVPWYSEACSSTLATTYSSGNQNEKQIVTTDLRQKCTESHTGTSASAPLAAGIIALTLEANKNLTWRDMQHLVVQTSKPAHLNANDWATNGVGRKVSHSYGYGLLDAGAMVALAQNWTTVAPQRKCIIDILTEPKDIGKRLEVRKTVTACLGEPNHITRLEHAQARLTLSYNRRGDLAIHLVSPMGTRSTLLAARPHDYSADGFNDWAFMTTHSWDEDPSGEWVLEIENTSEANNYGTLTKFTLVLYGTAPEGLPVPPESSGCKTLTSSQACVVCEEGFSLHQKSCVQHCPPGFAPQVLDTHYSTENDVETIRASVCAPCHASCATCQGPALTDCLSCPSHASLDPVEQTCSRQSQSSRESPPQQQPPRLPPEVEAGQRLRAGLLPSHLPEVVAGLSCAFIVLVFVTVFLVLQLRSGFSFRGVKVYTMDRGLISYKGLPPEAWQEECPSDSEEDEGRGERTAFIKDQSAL
UniProt P25084, whole entry: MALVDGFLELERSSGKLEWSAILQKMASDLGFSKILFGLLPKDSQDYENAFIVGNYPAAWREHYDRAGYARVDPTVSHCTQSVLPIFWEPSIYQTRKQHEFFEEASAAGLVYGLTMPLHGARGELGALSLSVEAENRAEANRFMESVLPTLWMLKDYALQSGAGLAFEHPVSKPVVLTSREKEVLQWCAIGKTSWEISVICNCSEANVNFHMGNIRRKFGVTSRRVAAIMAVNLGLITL
UniProt Q9VNB5, whole entry: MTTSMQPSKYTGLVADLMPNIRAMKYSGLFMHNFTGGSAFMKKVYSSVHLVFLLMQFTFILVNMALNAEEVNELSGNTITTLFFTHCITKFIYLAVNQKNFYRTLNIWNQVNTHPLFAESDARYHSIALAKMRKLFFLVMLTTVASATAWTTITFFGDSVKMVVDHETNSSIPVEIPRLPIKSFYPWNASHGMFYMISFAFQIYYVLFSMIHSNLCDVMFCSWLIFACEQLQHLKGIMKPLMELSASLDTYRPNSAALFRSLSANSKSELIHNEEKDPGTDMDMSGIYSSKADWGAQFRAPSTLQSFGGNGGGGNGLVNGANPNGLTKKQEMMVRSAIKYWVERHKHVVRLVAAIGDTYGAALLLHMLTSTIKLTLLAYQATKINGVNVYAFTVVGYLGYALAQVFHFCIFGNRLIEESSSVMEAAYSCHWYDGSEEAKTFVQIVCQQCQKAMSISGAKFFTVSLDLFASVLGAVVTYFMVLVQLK
UniProt P9WPP7, whole entry: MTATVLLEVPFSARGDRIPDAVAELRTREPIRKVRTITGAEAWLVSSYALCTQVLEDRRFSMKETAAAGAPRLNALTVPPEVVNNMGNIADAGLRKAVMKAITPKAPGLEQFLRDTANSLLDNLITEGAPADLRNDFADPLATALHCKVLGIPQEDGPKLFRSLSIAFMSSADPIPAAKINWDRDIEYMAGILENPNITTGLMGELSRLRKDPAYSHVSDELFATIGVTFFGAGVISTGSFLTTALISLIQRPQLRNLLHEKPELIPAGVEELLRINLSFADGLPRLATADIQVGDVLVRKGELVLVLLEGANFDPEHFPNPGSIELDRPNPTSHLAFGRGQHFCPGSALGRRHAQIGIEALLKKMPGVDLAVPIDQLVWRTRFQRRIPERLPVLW
UniProt P01106, whole entry: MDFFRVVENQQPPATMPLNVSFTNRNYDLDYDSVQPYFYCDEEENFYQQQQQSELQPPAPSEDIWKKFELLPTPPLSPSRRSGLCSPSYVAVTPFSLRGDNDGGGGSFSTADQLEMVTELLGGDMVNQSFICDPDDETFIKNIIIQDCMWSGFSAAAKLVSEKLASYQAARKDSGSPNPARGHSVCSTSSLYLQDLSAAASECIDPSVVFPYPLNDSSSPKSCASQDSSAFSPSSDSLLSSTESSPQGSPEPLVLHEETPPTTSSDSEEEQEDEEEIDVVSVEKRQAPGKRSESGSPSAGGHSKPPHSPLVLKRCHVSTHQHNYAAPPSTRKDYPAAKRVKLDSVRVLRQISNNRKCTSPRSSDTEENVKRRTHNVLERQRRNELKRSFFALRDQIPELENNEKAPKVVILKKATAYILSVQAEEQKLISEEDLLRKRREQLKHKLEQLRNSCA
UniProt P42866, whole entry: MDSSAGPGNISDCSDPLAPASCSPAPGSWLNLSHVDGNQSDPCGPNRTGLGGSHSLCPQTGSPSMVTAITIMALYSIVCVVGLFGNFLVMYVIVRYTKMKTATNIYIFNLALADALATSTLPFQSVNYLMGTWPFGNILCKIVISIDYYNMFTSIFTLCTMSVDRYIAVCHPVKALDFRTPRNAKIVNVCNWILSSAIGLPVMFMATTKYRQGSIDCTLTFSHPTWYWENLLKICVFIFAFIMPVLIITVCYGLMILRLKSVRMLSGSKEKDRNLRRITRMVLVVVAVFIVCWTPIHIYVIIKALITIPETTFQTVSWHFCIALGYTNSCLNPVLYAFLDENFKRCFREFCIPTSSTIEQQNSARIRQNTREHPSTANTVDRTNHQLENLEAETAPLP
UniProt P35372, whole entry, looked up: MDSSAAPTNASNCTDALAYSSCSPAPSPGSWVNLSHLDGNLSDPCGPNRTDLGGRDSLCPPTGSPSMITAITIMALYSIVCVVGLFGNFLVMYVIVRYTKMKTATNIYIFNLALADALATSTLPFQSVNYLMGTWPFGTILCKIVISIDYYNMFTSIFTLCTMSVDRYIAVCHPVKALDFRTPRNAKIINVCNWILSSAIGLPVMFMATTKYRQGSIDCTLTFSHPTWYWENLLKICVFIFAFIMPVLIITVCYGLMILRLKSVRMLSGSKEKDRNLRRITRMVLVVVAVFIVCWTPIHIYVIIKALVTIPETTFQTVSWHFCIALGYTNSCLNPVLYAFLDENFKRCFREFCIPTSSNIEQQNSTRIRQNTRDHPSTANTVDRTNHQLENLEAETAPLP
UniProt Q13148, whole entry: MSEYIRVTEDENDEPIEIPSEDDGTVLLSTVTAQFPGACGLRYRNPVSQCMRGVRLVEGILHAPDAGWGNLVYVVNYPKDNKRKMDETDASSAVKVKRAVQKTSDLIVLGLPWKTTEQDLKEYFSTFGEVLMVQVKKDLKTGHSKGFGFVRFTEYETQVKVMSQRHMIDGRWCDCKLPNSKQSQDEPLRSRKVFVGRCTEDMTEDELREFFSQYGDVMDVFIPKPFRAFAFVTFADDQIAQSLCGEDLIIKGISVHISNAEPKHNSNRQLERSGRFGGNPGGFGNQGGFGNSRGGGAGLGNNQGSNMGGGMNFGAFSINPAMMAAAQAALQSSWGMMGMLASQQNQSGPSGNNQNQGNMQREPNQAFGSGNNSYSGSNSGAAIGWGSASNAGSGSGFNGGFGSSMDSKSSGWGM
UniProt Q8RLA6, 21-275 limits assumed: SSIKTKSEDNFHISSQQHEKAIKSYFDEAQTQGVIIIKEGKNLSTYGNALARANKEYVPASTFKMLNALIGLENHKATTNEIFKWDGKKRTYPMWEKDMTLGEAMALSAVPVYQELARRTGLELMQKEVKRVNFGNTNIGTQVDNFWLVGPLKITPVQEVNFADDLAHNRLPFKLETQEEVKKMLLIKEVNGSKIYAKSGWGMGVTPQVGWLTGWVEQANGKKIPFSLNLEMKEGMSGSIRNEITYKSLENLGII
UniProt Q07440, whole entry P104K/C113S, looked up: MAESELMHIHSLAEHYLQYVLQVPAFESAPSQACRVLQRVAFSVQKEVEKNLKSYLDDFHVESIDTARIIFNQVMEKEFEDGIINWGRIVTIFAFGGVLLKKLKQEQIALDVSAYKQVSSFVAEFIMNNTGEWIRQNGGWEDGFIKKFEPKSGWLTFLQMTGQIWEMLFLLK
UniProt C7C422, 36-270 A233V limits assumed: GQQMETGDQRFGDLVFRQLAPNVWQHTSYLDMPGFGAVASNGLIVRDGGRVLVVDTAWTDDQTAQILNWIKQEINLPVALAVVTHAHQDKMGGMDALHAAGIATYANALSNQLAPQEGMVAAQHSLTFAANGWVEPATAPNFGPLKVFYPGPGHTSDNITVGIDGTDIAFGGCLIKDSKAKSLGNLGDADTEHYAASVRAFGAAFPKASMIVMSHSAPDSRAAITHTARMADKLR
UniProt P11229, whole entry: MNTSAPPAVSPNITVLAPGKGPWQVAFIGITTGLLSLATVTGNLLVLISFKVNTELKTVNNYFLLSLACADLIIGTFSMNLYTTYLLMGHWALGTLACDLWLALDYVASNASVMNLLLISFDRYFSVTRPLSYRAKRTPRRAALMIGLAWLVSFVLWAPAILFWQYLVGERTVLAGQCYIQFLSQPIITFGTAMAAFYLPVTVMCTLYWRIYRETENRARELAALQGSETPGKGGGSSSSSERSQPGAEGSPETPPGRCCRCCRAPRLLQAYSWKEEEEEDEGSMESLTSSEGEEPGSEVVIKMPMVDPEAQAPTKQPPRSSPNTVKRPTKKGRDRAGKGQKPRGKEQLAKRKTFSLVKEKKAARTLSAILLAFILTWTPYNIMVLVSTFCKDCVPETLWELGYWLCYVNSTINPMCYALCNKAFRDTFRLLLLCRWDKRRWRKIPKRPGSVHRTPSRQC
UniProt Q6XEC0, 23-265 limits assumed: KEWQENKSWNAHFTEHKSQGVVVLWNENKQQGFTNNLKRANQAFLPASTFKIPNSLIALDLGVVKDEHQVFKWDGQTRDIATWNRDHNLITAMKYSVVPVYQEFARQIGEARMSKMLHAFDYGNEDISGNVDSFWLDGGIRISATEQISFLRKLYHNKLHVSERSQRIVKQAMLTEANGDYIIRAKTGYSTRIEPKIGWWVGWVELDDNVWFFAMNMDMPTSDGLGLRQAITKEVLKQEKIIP
UniProt P33535, whole entry: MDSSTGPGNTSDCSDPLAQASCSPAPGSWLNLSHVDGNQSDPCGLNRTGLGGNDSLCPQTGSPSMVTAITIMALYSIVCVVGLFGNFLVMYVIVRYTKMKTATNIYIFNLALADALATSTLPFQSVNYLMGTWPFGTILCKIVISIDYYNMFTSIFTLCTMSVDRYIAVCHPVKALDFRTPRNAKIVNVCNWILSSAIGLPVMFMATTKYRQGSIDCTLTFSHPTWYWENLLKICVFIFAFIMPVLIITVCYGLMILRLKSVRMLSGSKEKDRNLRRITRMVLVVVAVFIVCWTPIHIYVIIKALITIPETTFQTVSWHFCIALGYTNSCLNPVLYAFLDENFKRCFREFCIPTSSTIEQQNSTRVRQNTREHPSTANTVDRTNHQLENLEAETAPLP
UniProt P03420, 26-109 partner limits assumed: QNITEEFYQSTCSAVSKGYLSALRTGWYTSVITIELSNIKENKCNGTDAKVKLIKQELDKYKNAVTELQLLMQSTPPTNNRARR
UniProt P03420, 137-513 with tags or gaps I379V/M447V/S155C/S190F/S290C/V207L limits assumed: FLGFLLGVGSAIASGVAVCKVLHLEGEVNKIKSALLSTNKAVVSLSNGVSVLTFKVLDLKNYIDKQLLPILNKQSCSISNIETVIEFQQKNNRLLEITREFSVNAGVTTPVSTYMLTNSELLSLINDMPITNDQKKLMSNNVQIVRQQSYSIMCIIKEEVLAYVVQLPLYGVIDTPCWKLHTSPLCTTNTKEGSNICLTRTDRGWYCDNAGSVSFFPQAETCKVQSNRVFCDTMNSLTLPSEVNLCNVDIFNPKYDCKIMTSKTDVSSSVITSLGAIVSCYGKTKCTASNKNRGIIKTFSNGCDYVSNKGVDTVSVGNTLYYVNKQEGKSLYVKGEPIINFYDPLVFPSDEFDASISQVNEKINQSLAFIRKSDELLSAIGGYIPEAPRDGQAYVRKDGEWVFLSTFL

SMILES = C#CCCCN1C(=O)[C@@]2(CN2[S@@+]([O-])C(C)(C)C)c2ccccc21 (some centres unmarked); target or system = MYC (Homo sapiens, UniProt P01106); assay = thermal destabilisation, CETSA; test system = PSN1; setting = 50 µM, 4 h; scale = baseline: vehicle; endpoint = Tm shift; result = 6.4 °C
SMILES = C#CCN1CC[C@]23c4c5ccc(O)c4O[C@H]2[C@H](NC(=O)c2ccc(N=[N+]=[N-])c([125I])c2)CC[C@@]3(O)[C@H]1C5; target or system = Oprm1 (Mus musculus, UniProt P42866); assay = binding; test system = CHO cell membranes; setting = 0 °C; endpoint = dissociation half-life (slow phase); result = 389 min
SMILES = CC(=O)N[C@@H](CCCNC(=N)N)C(=O)N[C@H](C(=O)N[C@@H](CCCNC(=N)N)C(=O)N[C@@H](CCCNC(=N)N)C(=O)Nc1ccc2c(C)cc(=O)oc2c1)C(C)C; target or system = FURIN; assay = substrate; setting = concentration not given, together with: KCl; endpoint = hydrolysis rate; result = decreased
SMILES = COCOc1ccc(C(=O)OC2=C[C@@H](C(=O)OC)[C@]3(C)CC[C@H]4C(=O)O[C@H](c5ccoc5)C[C@]4(C)[C@H]3C2=O)cc1F; target or system = Mu-type opioid receptor, with beta-arrestin-2 (OPRM1, Homo sapiens, UniProt P35372); assay = agonist; endpoint = bias factor; result = 0.15
SMILES = O=C(Oc1c(Br)cc(Br)cc1CNC(=O)c1ccccc1[N+](=O)[O-])c1ccccc1; target or system = lasR; assay = reporter gene, agonist; test system = Escherichia coli JLD271 lasI-lacZ reporter; scale = baseline: OdDHL; endpoint = maximum efficacy; result = 100%
SMILES = CCCn1c(SCC(=O)Nc2ccc(C(C)C)cc2)nnc1-c1ccncc1; target or system = Orco; assay = calcium mobilization, agonist; test system = HEK293 expressing Drosophila Orco; scale = baseline: VUAA1; endpoint = efficacy; result = 28%
SMILES = CC(=O)NCCCC[C@H](NC(C)=O)C(=O)N[C@@H](Cc1c[nH]c2ccccc12)C(N)=O; target or system = HDAC6; assay = deacetylation, substrate; setting = 25 °C, together with: 10 to 50 nM enzyme; endpoint = kcat/KM; result = 2500 ± 1000 M⁻¹ s⁻¹
SMILES = COc1ccc(CN[C@@H]2CO[C@H](C(c3ccccc3)c3ccccc3)C[C@H]2O)cc1; target or system = ADRB3 (Homo sapiens, UniProt P13945); assay = radioligand binding, radioligand displacement; setting = 10 µM; endpoint = inhibition; result = 60.7%
SMILES = COC(=O)[C@@]1(C)C=C(C(=O)Nc2ccc(C)c(C(=O)Nc3ccc(Nc4nccc(-c5cccnc5)n4)cc3)c2)C(=O)CC1; target or system = MAPK8; assay = kinase activity, inhibitor; setting = 0.06097 µM, unit not given, together with: 10 mM GSH; scale = baseline: DMSO; endpoint = remaining activity; result = 0.22
SMILES = Cc1nc2c[nH]c(/C=C/C=C/c3ccc(N(C)C)cc3)cn-2c1=O; target or system = TAR DNA-binding protein 43, oligomeric (TARDBP, Homo sapiens, UniProt Q13148); assay = oligomer binding; setting = 15 µM; scale = baseline: probe without protein; endpoint = signal enhancement; result = 17.2 ± 3.6 fold
SMILES = O=C(NCc1cc(Br)cc(Br)c1O)c1ccccc1[N+](=O)[O-]; target or system = lasR; assay = reporter gene, agonist; test system = Escherichia coli JLD271 lasI-lacZ reporter; scale = baseline: OdDHL; endpoint = maximum efficacy; result = 65%
SMILES = CC(=O)N[C@@H](CCCNC(=N)N)C(=O)N[C@H](C(=O)N[C@@H](CCCNC(=N)N)C(=O)N[C@@H](CCCNC(=N)N)C(=O)Nc1ccc2c(C)cc(=O)oc2c1)C(C)C; target or system = FURIN; assay = substrate; setting = pH 7; endpoint = Km; result = 4.9 µM
SMILES = NC[C@@H](NC[C@@H]1CCCN1C[C@@H](CO)NC[C@@H](NCCC1CC2CCC1C2)c1ccccc1)c1ccccc1 (some centres unmarked); target or system = Escherichia coli; assay = bacterial growth; setting = compound alone; endpoint = IC50; result = > 24 µM
SMILES = COC(=O)[C@@]1(C)C=C(C(=O)Nc2cc(C(=O)Nc3ccc(Nc4nccc(-c5cccnc5)n4)cc3)ccc2C)C(=O)CC1; target or system = MAPK8; assay = kinase activity, inhibitor; setting = 4.938 µM, unit not given, together with: 10 mM GSH; scale = baseline: DMSO; endpoint = remaining activity; result = 0.046
SMILES = O=C(NC1CCN(c2ncnc3[nH]cnc23)CC1)c1cccc(NS(=O)(=O)c2ccc([N+](=O)[O-])cc2)c1; target or system = A549-ACE2; setting = 22.22 µM; endpoint = viability; result = 98%
SMILES = CC1(C)SCN(C(=O)[C@@H](O)[C@H](Cc2ccccc2)NC(=O)COc2ccccc2)[C@@H]1C(=O)N[C@H]1c2ccccc2C[C@H]1O; target or system = Gag-Pol polyprotein, protease (gag-pol, Human immunodeficiency virus type 1 group M subtype B, UniProt P04585, L521I/L551I/Q495K); assay = binding, isothermal titration calorimetry; setting = pH 5.0, 25 °C; endpoint = association constant (Ka); result = 8.5e+07 M⁻¹
SMILES = N#Cc1ccccc1C(=O)Oc1c(Br)cc(Br)cc1CNC(=O)c1ccccc1[N+](=O)[O-]; target or system = lasR; assay = reporter gene, agonist; test system = Escherichia coli JLD271 lasI-lacZ reporter; scale = baseline: OdDHL; endpoint = maximum efficacy; result = 99%
SMILES = O=S(=O)(O)c1ccc(-c2ccc(S(=O)(=O)O)cc2)cc1; target or system = Beta-lactamase (blaOXA-33, Acinetobacter baumannii, UniProt Q8RLA6); assay = enzyme activity, inhibitor; endpoint = ligand efficiency; result = 0.32
SMILES = Nc1nc2c(ncn2[C@@H]2CC[C@H](OC(C(=O)O)P(=O)(O)O)C2)c(=O)[nH]1 (relative stereo); target or system = Gag-Pol polyprotein, reverse transcriptase (gag-pol, Human immunodeficiency virus type 1 group M subtype B, UniProt P04585); assay = mixed inhibitor, mixed model fit; setting = poly rC.dG template/primer, unit not given, together with: varying dGTP; scale = 1 noncompetitive, large competitive; endpoint = alpha value; result = 3.92
SMILES = Cc1ccc(N=Nc2c(O)ccc3cc(S(=O)(=O)O)ccc23)cc1; target or system = Bcl-2-related protein A1 (Mus musculus, UniProt Q07440, C113S/P104K); assay = binding, inhibitor, fluorescence polarization competition; setting = 100 µM, overnight, 20 °C, together with: FITC-Noxa peptide 375 nM; scale = baseline: peptide without protein; endpoint = Noxa peptide bound; result = 60.6%
SMILES = COC(=O)[C@@H](CS)N1C(=O)c2ccc(N(C)C)cc2C1=O; target or system = blaNDM-1 (Klebsiella pneumoniae, UniProt C7C422, A233V); assay = probe; setting = 10 µM, NDM-6 variant, probe:enzyme 1:3, together with: ZnSO4 10 µM; scale = baseline: probe alone; endpoint = fluorescence increase; result = 13 fold
SMILES = CCn1c(SCC(=O)Nc2ccc(C(C)=O)cc2)nnc1-c1cccnc1; target or system = Orco; assay = calcium mobilization, agonist; test system = HEK293 expressing Drosophila Orco; scale = baseline: VUAA1; endpoint = efficacy; result = 96%
SMILES = O=C(N[C@H]1CCCC[C@@H]1O)C1CN(Cc2ccc(-n3cccn3)cc2)c2ccccc2O1 (some centres unmarked); target or system = CHRM1 (Homo sapiens, UniProt P11229); assay = calcium mobilization, positive allosteric modulator; test system = high-expression cell line; setting = together with: acetylcholine EC20; scale = baseline: acetylcholine max; endpoint = efficacy; result = 77 ± 7%
SMILES = CCC(c1ccc(-c2ccc(SC)s2)cc1)n1ccnc1 (centres unmarked); target or system = cyp121; assay = binding; endpoint = Kd; result = 4.5 ± 0.88 µM
SMILES = O=S(=O)(O)c1ccc2c(c1)Cc1cc(S(=O)(=O)O)ccc1-2; target or system = OXA-48 (Klebsiella pneumoniae, UniProt Q6XEC0); assay = enzyme activity; endpoint = ligand efficiency; result = 0.38
SMILES = CCCC(=O)NCC1CCCO1 (racemic); target or system = rhlR (Pseudomonas aeruginosa, UniProt P54292); assay = reporter gene, agonist; test system = Escherichia coli JLD271 reporter; setting = 10 µM; scale = baseline: BHL 1 mM; endpoint = activation; result = 0%
SMILES = C=CCN1CC[C@]23c4c5ccc(O)c4O[C@H]2[C@H](NC(=O)c2ccc(N=[N+]=[N-])c([125I])c2)CC[C@@]3(O)[C@H]1C5; target or system = Oprm1 (Mus musculus, UniProt P42866); assay = binding; test system = CHO cell membranes; setting = 0 °C; endpoint = dissociation half-life (slow phase); result = 244 min
SMILES = Oc1ccc(-c2ccc(Cn3ccnc3)cc2)cc1; target or system = cyp121; assay = binding; endpoint = Kd; result = 7.4 ± 2.3 µM
SMILES = Cc1ccc(S(=O)(=O)Nc2cccc(C(=O)NC3CCN(c4ncnc5[nH]cnc45)CC3)c2)cc1Cl; target or system = A549-ACE2; setting = 200 µM; endpoint = viability; result = 60.9%
SMILES = CC(=O)NCCCC[C@H](NC(=O)CNC(=O)[C@H](CCCNC(=N)N)NC(C)=O)C(N)=O; target or system = HDAC6; assay = deacetylation, substrate; setting = 25 °C, together with: 10 to 50 nM enzyme; endpoint = kcat; result = 0.32 ± 0.06 s⁻¹
SMILES = N#Cc1cc(C(=O)N[C@@H]2CC[C@@]3(O)[C@H]4Cc5ccc(O)c6c5[C@@]3(CCN4CC3CC3)[C@H]2O6)ccn1; target or system = Oprm1 (Rattus norvegicus, UniProt P33535); assay = agonist; test system = CHO cell membranes; setting = 5 µM; scale = baseline: DAMGO; endpoint = Emax; result = 58.1 ± 1.48%
SMILES = CS(=O)(=O)CCCn1c(Cn2c(=O)n(C3CC3)c3ccncc32)nc2cc(Br)ccc21; target or system = Fusion glycoprotein F0, prefusion DS-Cav1 (Human respiratory syncytial virus A, UniProt P03420, I379V/M447V/S155C/S190F/S290C/V207L); assay = isothermal titration calorimetry; test system = respiratory syncytial virus A2, PBS with 1% DMSO; setting = concentration not given, 25 °C, per prefusion F trimer; endpoint = binding stoichiometry; result = 1.1 ± 0.14

A few entries again:
SMILES = COC(=O)[C@@]1(C)C=C(C(=O)Nc2cc(C(=O)Nc3ccc(Nc4nccc(-c5cccnc5)n4)cc3)ccc2C)C(=O)CC1; target or system = MAPK8; assay = kinase activity, inhibitor; setting = 4.938 µM, unit not given, together with: 10 mM GSH; scale = baseline: DMSO; endpoint = remaining activity; result = 0.046
SMILES = O=C(NC1CCN(c2ncnc3[nH]cnc23)CC1)c1cccc(NS(=O)(=O)c2ccc([N+](=O)[O-])cc2)c1; target or system = A549-ACE2; setting = 22.22 µM; endpoint = viability; result = 98%
